Assay results from different studies.
Protocols differ between the studies behind these lines.

SMILES	test	test system	conditions	scale	quantity	value
C[C@@H](Nc1cc(F)cc(F)c1)c1cc(C(=O)N(C)C)cc2c(=O)cc(N3CCOCC3)oc12	CTCAE v4, measured: lung infection	patients with advanced solid tumours	oral, dose not given, phase I dose expansion		patients with related SAE	0%
COc1cc(Nc2ncc3c(n2)-c2ccc(Cl)cc2C(c2c(F)cccc2OC)=NC3)ccc1C(=O)O	measured: Fatigue, grade 2	cancer patients, phase 1/2	oral, dose not given, added: pembrolizumab		patients with adverse event	29%
O=C(Nc1nc2cccc(-c3ccc(CN4CCS(=O)(=O)CC4)cc3)n2n1)C1CC1	measured: angina pectoris	rheumatoid arthritis patients	oral, 200 mg once daily, 4 weeks, any relatedness		patients with adverse event	0%
FC(F)(F)c1ccc(CNc2ccc(Cc3c[nH]c4ncc(Cl)cc34)cn2)cn1	measured: aspartate aminotransferase increased	advanced solid tumour patients	oral, 1000 mg/day, all grades, all cohorts		patients with treatment-related adverse event	12%
CNC(=O)c1ccc(-c2cnc3ncc(Cc4ccc5ncccc5c4)n3n2)cc1F	measured: Diarrhea	other cancer patients	oral, 600 mg twice daily, expansion cohort, grade 3-4		patients with adverse event	0%
CCO[C@H]1CCN(Cc2c(OC)cc(C)c3[nH]ccc23)[C@H](c2ccc(C(=O)O)cc2)C1	measured: Dyspepsia	PNH patients, active haemolysis	oral, 200 mg twice daily, extension phase		patients with adverse event	0%
C=CC(=O)Nc1cc(Nc2nccc(-c3cn(C)c4ccccc34)n2)c(OC)cc1N(C)CCN(C)C	measured: Pain grade ≥3	EGFR-mutant MET-altered NSCLC	oral, dose not given, study		patients with treatment-related AEs	0%
Cc1cc(NC2CCN(C(=O)OC3CCN(C(=O)/C=C/CN(C)C)C3)CC2)n2ncc(C(C)C)c2n1 (stereo not drawn)	Phase I dose escalation CTCAE v4.0, measured: Constipation	patients with advanced solid tumours	dose not given, all dose schedules any grade		patients with adverse event	11%
CCOc1c([C@H](C)n2nc(C)c3c(N)ncnc32)cc(Cl)c(F)c1[C@@H]1CNC(=O)C1	measured: QTcF change ≤30 ms	previously treated B-cell malignancy	oral, 10 mg once daily, overall population	relative to: baseline	patients	100%

For quick reference, copied from above:
SMILES	test	test system	conditions	scale	quantity	value
Cc1cc(NC2CCN(C(=O)OC3CCN(C(=O)/C=C/CN(C)C)C3)CC2)n2ncc(C(C)C)c2n1 (stereo not drawn)	Phase I dose escalation CTCAE v4.0, measured: Constipation	patients with advanced solid tumours	dose not given, all dose schedules any grade		patients with adverse event	11%
